Published values pooled from the literature.
Numbered parts are unrelated; each lists some results of a single study. Changes are numbered by the printed parent chain.
Chain of UniProt Q38832 (whole entry, looked up): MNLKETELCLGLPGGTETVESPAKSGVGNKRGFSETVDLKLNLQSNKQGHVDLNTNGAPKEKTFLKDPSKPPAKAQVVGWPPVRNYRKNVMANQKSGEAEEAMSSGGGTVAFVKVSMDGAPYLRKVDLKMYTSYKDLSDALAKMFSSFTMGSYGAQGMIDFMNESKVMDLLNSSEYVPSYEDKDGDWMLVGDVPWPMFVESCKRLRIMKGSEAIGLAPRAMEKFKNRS
Chain of UniProt Q9FX25 (whole entry, looked up): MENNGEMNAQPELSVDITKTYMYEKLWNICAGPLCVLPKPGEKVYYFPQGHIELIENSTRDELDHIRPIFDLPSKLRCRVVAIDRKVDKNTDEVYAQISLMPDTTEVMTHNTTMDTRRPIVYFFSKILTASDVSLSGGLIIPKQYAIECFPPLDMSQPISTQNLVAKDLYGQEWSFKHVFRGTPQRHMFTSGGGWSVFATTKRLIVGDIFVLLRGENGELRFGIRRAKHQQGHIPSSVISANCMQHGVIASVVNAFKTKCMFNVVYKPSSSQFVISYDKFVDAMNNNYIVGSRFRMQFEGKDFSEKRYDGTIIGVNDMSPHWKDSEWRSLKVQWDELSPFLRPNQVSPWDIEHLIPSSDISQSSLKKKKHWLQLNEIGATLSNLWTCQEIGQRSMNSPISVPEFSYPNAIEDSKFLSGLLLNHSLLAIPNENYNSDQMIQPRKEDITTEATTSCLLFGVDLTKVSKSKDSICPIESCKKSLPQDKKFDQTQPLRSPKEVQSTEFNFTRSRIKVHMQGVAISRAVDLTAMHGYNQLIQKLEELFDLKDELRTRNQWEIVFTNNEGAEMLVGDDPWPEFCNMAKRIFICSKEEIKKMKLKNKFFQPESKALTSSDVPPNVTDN
Chain of UniProt Q8LAL2 (whole entry, looked up): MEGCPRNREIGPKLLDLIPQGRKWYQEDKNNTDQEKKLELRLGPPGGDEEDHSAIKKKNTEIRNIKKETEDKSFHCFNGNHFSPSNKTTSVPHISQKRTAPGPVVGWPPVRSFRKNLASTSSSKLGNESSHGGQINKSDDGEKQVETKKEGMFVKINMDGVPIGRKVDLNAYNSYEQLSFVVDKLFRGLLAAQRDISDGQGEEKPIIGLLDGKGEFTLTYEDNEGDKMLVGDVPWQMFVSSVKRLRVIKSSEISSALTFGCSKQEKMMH
Chain of UniProt P28335 (whole entry, looked up): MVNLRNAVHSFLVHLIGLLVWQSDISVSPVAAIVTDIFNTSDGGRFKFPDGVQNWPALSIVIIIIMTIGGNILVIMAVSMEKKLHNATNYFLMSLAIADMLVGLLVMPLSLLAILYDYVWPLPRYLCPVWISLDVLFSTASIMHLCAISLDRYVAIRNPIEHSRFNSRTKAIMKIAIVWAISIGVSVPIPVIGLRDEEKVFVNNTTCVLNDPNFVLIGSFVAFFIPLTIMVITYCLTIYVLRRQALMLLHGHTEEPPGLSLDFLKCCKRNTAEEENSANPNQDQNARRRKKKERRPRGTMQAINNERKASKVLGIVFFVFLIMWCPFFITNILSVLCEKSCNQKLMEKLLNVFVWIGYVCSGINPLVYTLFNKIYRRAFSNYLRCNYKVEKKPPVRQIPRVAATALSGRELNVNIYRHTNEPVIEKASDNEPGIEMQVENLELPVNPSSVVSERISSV
Chain of UniProt Q8H174 (whole entry, looked up): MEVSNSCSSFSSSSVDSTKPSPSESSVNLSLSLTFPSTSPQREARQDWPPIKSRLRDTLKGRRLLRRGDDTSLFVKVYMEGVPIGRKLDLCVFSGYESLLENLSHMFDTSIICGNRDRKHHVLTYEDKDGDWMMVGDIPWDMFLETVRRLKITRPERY
Chain of UniProt Q9FKM7 (whole entry, looked up): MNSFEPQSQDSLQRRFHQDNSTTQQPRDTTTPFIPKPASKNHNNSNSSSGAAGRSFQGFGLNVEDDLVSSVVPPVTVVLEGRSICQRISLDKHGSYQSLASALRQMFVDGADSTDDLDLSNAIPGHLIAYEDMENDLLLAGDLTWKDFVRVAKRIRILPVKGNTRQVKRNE

Block 1 — target: CCNE2, cyclin fold, Cln2 fusion (human); technique: yeast growth competition, sequencing; sample: yeast; notes: strong parent motif; reference: not given; reading: higher = stronger binding
Parent: viral docking peptide; YKVKRRLVFGADD; partner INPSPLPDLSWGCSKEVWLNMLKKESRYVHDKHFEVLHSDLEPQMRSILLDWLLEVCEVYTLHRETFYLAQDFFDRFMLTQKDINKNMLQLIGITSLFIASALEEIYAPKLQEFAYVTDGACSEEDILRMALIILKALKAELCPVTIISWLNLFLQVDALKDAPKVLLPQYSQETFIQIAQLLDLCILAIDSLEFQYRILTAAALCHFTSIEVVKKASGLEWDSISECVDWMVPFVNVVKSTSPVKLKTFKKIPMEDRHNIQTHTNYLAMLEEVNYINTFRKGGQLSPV
`G10F` — result for “normalised enrichment score”: 3.75.
Under “normalised enrichment score”, `K4C` is recorded as 4.88.
Under “normalised enrichment score”, `K2P` is recorded as 5.56.
For `K2A`, “normalised enrichment score” read 5.41.
For `L7P`, “normalised enrichment score” read 0.195.
Under “normalised enrichment score”, `K4L` is recorded as 0.812.
`R5V`: “normalised enrichment score” 0.802.
For `V3Q`, “normalised enrichment score” read 0.735.
`V3W` — result for “normalised enrichment score”: 2.21.
Under “normalised enrichment score”, `K4S` is recorded as 3.24.
`R5K`: “normalised enrichment score” 2.99.
Under “normalised enrichment score”, `V3N` is recorded as 0.46.
`V8W`: “normalised enrichment score” 4.35.
`R5P`: “normalised enrichment score” -0.0371.

Block 2 — technique: protein-binding microarray; molecule type: double-stranded DNA, one strand shown; sample: in vitro; concentration: not given; reading: higher = stronger binding
Target: Myc proto-oncogene protein, bHLH-zipper, MAX partner unstated (MYC, Homo sapiens, UniProt P01106, residues 368-449)
Chain of UniProt P01106 (368-449, looked up): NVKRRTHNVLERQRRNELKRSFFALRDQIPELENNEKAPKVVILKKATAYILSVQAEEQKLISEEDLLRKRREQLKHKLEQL
Notes: k-mer, scored over probes, only values ≥0.25
For `ATGTGGCC`, the E-score was 0.394.
With `CCACGTTA` the E-score was 0.383.
`ATGCTCCA` gave an E-score of 0.281.
With `ATCGTGGG` the E-score was 0.254.
The E-score of `CCACGTTC` is reported as 0.362.
The E-score of `CGTGCCAG` is reported as 0.279.
`CATGGACC` has an E-score of 0.33.
`ACCCGCGC` gave an E-score of 0.257.

Block 3 — Molecule: B1 (IAA11); technique: two-hybrid; notes: weak activation fusion; reading: higher = firmer interaction
T1: itself; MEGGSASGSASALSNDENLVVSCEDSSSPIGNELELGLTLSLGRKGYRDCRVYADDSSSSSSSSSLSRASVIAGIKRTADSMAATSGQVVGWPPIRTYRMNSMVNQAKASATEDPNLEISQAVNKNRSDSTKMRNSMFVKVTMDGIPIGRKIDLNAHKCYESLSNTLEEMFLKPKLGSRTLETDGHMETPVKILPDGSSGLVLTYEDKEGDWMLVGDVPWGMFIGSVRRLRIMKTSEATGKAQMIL
B1: IAA11 (Arabidopsis thaliana, UniProt Q38829); chain MEGGSASGSASALSNDENLVVSCEDSSSPIGNELELGLTLSLGRKGYRDCRVYADDSSSSSSSSSLSRASVIAGIKRTADSMAATSGQVVGWPPIRTYRMNSMVNQAKASATEDPNLEISQAVNKNRSDSTKMRNSMFVKVTMDGIPIGRKIDLNAHKCYESLSNTLEEMFLKPKLGSRTLETDGHMETPVKILPDGSSGLVLTYEDKEGDWMLVGDVPWGMFIGSVRRLRIMKTSEATGKAQMIL
It gave 0 for positive tests (IAA31 (Arabidopsis thaliana, UniProt Q8H174); reference: out of 2 tests).
For IAA26 (Arabidopsis thaliana, UniProt Q8LAL2); reference: out of 2 tests: positive tests read 0.
For IAA33 (Arabidopsis thaliana, UniProt Q9FKM7); reference: out of 4 tests: positive tests read 0.
It gave 0 for positive tests (IAA14 (Arabidopsis thaliana, UniProt Q38832); reference: out of 4 tests).
For IAA12 (Arabidopsis thaliana, UniProt Q38830); reference: out of 4 tests: positive tests read 1.
T1, itself; reference: out of 4 tests — positive tests: 0.
It gave 0 for positive tests (ARF13 (Arabidopsis thaliana, UniProt Q9FX25); reference: out of 4 tests).

Other studies, line by line
For `COc1cc(-c2cn(C3CCc4ccccc4N(CC(F)(F)F)C3=O)nn2)ccc1-n1ccc(C)n1` (stereo not drawn), the inhibition was 16.9% (5-hydroxytryptamine receptor 2C (HTR2C, Homo sapiens, UniProt P28335); binding, radioligand binding; 10 µM).

Excerpt of the above (block 3):
It gave 0 for positive tests (IAA31 (Arabidopsis thaliana, UniProt Q8H174); reference: out of 2 tests).
For IAA33 (Arabidopsis thaliana, UniProt Q9FKM7); reference: out of 4 tests: positive tests read 0.
T1, itself; reference: out of 4 tests — positive tests: 0.
For IAA12 (Arabidopsis thaliana, UniProt Q38830); reference: out of 4 tests: positive tests read 1.
